Measurements collected from several papers.
Each numbered part is a random draw from the data of one study; scales do not carry over between parts. Substitutions count along the parent as printed.

Block 1
Target: Protein max, full length (MAX, Homo sapiens, UniProt P61244-2, residues 1-151)
Method: protein-binding microarray
Form: double-stranded DNA, one strand shown
Matrix: in vitro
Tested at: not given
Notes: k-mer, scored over probes, only values ≥0.25
Reading: higher = stronger binding
Quantity: E-score
CACCATGA: 0.266
TCGTGCAA: 0.299
CTGACACA: 0.272
CCATGAGG: 0.418
AATCATGC: 0.389
CACGCAGG: 0.297
CGTCACGC: 0.391
ACATGTAT: 0.362
ACGTGCCT: 0.398
GCATGTCA: 0.389
AGTCCACG: 0.348
TCATGCGA: 0.286
ACGCACAT: 0.392

Block 2
Target: CCNE2, cyclin fold, Cln2 fusion (human)
Method: yeast growth competition, sequencing
Matrix: yeast
Notes: weak parent motif
Baseline: not given
Reading: higher = stronger binding
Quantity: normalised enrichment score
Parent: MASTL docking peptide (human); PMIAKNLMCELDE; partner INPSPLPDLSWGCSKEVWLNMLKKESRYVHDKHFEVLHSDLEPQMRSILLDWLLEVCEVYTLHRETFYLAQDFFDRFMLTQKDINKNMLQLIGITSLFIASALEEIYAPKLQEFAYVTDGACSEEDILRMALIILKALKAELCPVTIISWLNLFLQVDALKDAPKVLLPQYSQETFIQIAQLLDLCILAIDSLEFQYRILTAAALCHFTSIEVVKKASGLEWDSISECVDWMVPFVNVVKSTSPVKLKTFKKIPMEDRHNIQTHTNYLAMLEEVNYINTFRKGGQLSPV
PMIAKNLMCEYDE [L11Y]: 0.0418
PMIMKNLMCELDE [A4M]: -0.183
PMIAKNLMAELDE [C9A]: 0.0479
PMIAKNLMCELWE [D12W]: 0.0788
PMPAKNLMCELDE [I3P]: -0.133
PMIAFNLMCELDE [K5F]: -0.0805
PMIAKNLMHELDE [C9H]: -0.598
PMIAKNLECELDE [M8E]: 0.0938
PMIAKALMCELDE [N6A]: -0.228
PMIAKDLMCELDE [N6D]: -0.139
PMIAINLMCELDE [K5I]: 0.0327
PMIAKRLMCELDE [N6R]: 0.167
PMIAKNLMDELDE [C9D]: -0.261
PMIAHNLMCELDE [K5H]: -0.54

Block 3
Target: Prothrombin, mature alpha-thrombin (F2, Homo sapiens, UniProt P00734)
Method: aptamer microarray, sandwich
Form: DNA with 2'F-ANA
Matrix: in vitro
Tested at: 200 nM
Notes: whole 15-mer aptamer, many near background
With: Cy3 exosite-II aptamer, 400 nM
Reading: higher = stronger binding
Quantity: mean fluorescence intensity
Sequence: GGTTGGTGTGGTTGG
2'F-ANA at 5 6 7 9 10 11 14: 46.3 a.u.
2'F-ANA at 1 2 3 4 5 7 8 10 13: 45.1 a.u.
2'F-ANA at 1 2 4 5 6 8 10 12 14: 68.9 a.u.
2'F-ANA at 4 5 9 10: 42.5 a.u.
2'F-ANA at 1 2 4 5 6 7 9 11 12 14: 59.2 a.u.
2'F-ANA at 2 4 5 6 7 8 10 11 12 13 14 15: 50 a.u.
2'F-ANA at 1 2 3 9 10 12: 120 a.u.
2'F-ANA at 8 9 11 13 15: 415 a.u.
2'F-ANA at 1 2 3 6 8 9 10 11 13 14: 55.3 a.u.
2'F-ANA at 1 2 4 8 9 10 11 12: 62.1 a.u.
2'F-ANA at 2 7 9 10 12 14 15: 91.3 a.u.
2'F-ANA at 4 5 7 8 11 12 13 14 15: 52.8 a.u.
2'F-ANA at 3 4 6 8 9 10 12 14 15: 183 a.u.

Further values, each from its own experiment
PhoQ, residues 284 288 289 292 302 303 TVTVVA  fold induction (PhoP, residues 12 14 15 18 19 AQALL (Escherichia coli, UniProt P23836); Sort-seq, refers to: YFP reporter; E. coli; PhoQ-PhoP variant library, with: 10 µM Mg2+; baseline: high Mg2+ state, higher = stronger signaling): 9.42

A few entries again (block 3):
2'F-ANA at 4 5 7 8 11 12 13 14 15: 52.8 a.u.
2'F-ANA at 1 2 4 5 6 7 9 11 12 14: 59.2 a.u.
2'F-ANA at 3 4 6 8 9 10 12 14 15: 183 a.u.
